Assay results gathered from unrelated publications.
Each line is one published result; not all experiments were run side by side. Values joined by “and” are separate records of one study, mostly repeats; a detail may differ. Numbers after ± are the reported error.
BEST1: BEST1 (Homo sapiens, UniProt O76090)
Voltage-dependent P/Q-type calcium channel subunit alpha-1A: Voltage-dependent P/Q-type calcium channel subunit alpha-1A (Homo sapiens, UniProt O00555)
ADRA2C: Alpha-2C adrenergic receptor (ADRA2C, Homo sapiens, UniProt P18825)
TOP2B: DNA topoisomerase 2-beta (TOP2B, Homo sapiens, UniProt Q02880)
UCHL1: Ubiquitin carboxyl-terminal hydrolase isozyme L1 (UCHL1, Homo sapiens, UniProt P09936)
T1: G-quadruplex DNA (Homo sapiens); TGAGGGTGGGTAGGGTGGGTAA
T2: RNA aptamer del50, 5'-triphosphate, 2',3'-cyclic phosphate; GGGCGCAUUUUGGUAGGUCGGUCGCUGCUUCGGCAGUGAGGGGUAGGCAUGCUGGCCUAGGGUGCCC

SMILES	target	assay	test system	conditions	how to read	endpoint	result
c1cc(-c2nc(NCCCN3CCCCC3)c3ccccc3n2)nc(-c2nc(NCCCN3CCCCC3)c3ccccc3n2)c1	T1, G-quadruplex DNA (Homo sapiens)	thiazole orange displacement, competitor, FID	–	0.25 µM DNA, pH 7.4, 25 °C, KCl 100 mM, together with: thiazole orange 0.50 µM	–	IC50	246 nM
Nc1ccc(C(=O)O)cc1	BEST1	whole-cell patch clamp	HEK293 transiently expressing channel	concentration not given, membrane potential 20 mV	–	current density	18.6 pA/pF and 17.5 pA/pF and 12.5 pA/pF and 10.7 pA/pF and 11.1 pA/pF and 22.1 pA/pF and 23 pA/pF
CCNC(=O)/C=C/c1cccc(Br)c1	SLC6A19 (Homo sapiens, UniProt Q695T7)	inhibitor, FLIPR membrane potential	CHO-BC cells	0.03 µM, unit not given	reference: no inhibitor	remaining transport activity	0.972
OC[C@H]1OC(O)[C@H](O)[C@@H](O)[C@@H]1O (stereo partly shown)	Hexokinase-3 (HK3, Homo sapiens, UniProt P52790, E254A)	substrate inhibition	–	mutant E254A, complete substrate inhibition model, together with: ATP 20 mM	–	kcat	70 ± 5 s⁻¹
O=C(O)c1cccc(N2C(=O)C(O)=C(C(=O)c3ccccc3)C2c2ccc([N+](=O)[O-])cc2)c1 (stereo not shown)	ESR1/YWHAZ, with 14-3-3 zeta (Homo sapiens, UniProt P03372+P63104)	14-3-3ζ/ERα peptide binding, stabilizer, fluorescence polarization	–	200 µM, unit not given	reference: DMSO	top effect	1.2 ± 0.1
Nc1nc2c(ncn2[C@@H]2O[C@H](COP(=O)(O)OP(=O)(O)OP(=O)(O)O)[C@@H](O)[C@H]2O)c(=O)[nH]1	T2, RNA aptamer del50, 5'-triphosphate, 2',3'-cyclic phosphate	ITC	–	–	–	Kd	10.5 nM
Nc1nc2ccc(OC(F)(F)F)cc2s1	Voltage-dependent P/Q-type calcium channel subunit alpha-1A	ion current, antagonist	HEK293	10 µM	–	inhibition	24%
CCCCC[C@H](O)/C=C/[C@H]1[C@H](O)CC(=O)[C@@H]1C/C=C\CCCC(=O)O	PTGER1 (Homo sapiens, UniProt P34995, S69A)	IP1 accumulation, agonist	AD293	1 h, EP1 S69A mutant	–	Emax	105 ± 4.14%
C[C@H](CCC(C)(C)O)[C@H]1CC[C@H]2[C@@H]3CC=C4C[C@@](C)(O)CC[C@]4(C)[C@H]3CC[C@]12C	Glutamate NMDA receptor; GRIN1/GRIN2B (GRIN1/GRIN2B, Homo sapiens, UniProt Q05586+Q13224, E657A)	positive allosteric modulator, two-electrode voltage clamp	Xenopus oocytes expressing GluN2B-E657A	10 µM, 0.02% cremophor, together with: 100 µM glutamate and glycine	reference: without compound	current response	154 ± 2.4%
Nc1ncnc2c1ncn2[C@@H]1O[C@H](COP(=O)(O)CP(=O)(O)OP(=O)(O)O)[C@@H](O)[C@H]1O	P2X purinoceptor 1 (P2RX1, Homo sapiens, UniProt P51575, S286A)	saturation binding	HEK293	13 nM	–	specific binding	3850 CCPM and 722 CCPM and 1440 CCPM
Nc1ncnc2c1ncn2[C@@H]1O[C@H](COP(=O)(O)OP(=O)(O)OP(=O)(O)O)[C@@H](O)[C@H]1O	P2X purinoceptor 1 (P2RX1, Homo sapiens, UniProt P51575, R139M)	ion current, agonist, two-electrode voltage clamp	Xenopus oocytes	concentration-response curve	–	Hill slope	1.39
Cc1cc(Oc2ncccc2CN2CCN(c3cccc(F)c3)CC2)ccc1-c1c(C)c(=O)[nH]c(=O)n1C	ADRA2C	binding, radioligand binding	–	together with: [3H]rauwolscine	reference: Ki alpha2B over Ki alpha2C	selectivity ratio	3
O=c1nc(SCc2cc(F)cc(C(F)(F)F)c2)nc(SCc2ccc3sccc3c2)[nH]1	TOP2B	decatenation	–	7.8 µM, replicate 1	–	decatenated DNA	100%
NS(=O)(=O)c1cccc2cc(NC(=O)CCl)ccc12	UCHL1	covalent, intact protein LC-MS	–	12.5 µM	–	labelling	11.5%
COc1ccc(S(=O)(=O)n2nc(SCc3ccc(Cl)cc3)nc2N)cc1	Lysophospholipase-like protein 1 (Mus musculus, UniProt Q3UFF7)	enzyme activity, activator, gel-based ABPP	purified protein	concentration not given, together with: FP-rhodamine	reference: DMSO	probe labeling increase	2.4 fold
Cc1cc(Oc2ncccc2CN2CCN(c3ccc(C(F)(F)F)cn3)CC2)ccc1-c1c(C)c(=O)[nH]c(=O)n1C	ADRA2C	binding, radioligand binding	–	together with: [3H]rauwolscine	reference: Ki alpha2A over Ki alpha2C	selectivity ratio	5
N#Cc1c(Br)nc(-c2cccc([N+](=O)[O-])c2)c(C#N)c1N	UCHL1	covalent, intact protein LC-MS	–	12.5 µM	–	labelling	11.9%
CC[C@H](C)C(=O)O[C@H]1C[C@H](O)C=C2C=C[C@H](C)[C@H](CC[C@@H](O)C[C@@H](O)CC(=O)O)[C@H]21	Voltage-dependent P/Q-type calcium channel subunit alpha-1A	ion current, antagonist	HEK293	3 µM	–	inhibition	-3%
N#CC(=Cc1ccccc1)C(=O)Nc1ccc(N2CCCCC2)cc1	UCHL1	covalent, intact protein LC-MS	–	12.5 µM	–	labelling	10.2%
Cc1cn(C2CCN(Cc3cccc(Oc4cccc(OC(F)(F)F)c4)c3)CC2)c(=O)[nH]c1=O	Thymidylate kinase (DTYMK, Homo sapiens, UniProt P23919)	enzyme activity, inhibitor	–	no inhibition observed	–	highest concentration tested	> 40 µM
CN1CCN(c2cc(-c3ccncc3)c(-c3ccc4ccccc4c3)nn2)CC1	PTGER1 (Homo sapiens, UniProt P34995)	agonist, FLIPR	–	12.5 µM	–	activation	-2.4%
CCC(=O)NC[C@@H]1C[C@H]1c1cccc2c1CCO2	Voltage-dependent P/Q-type calcium channel subunit alpha-1A	ion current, antagonist	HEK293	30 µM	–	inhibition	1%

SMILES	target	assay	test system	conditions	how to read	endpoint	result
Cc1oc(C)c(S(=O)(=O)NCc2ccc(Br)c(F)c2F)c1C(=O)O	malate dehydrogenase	enzyme activity, inhibitor	–	200 µM, pH 7.0, 1% DMSO, aggregation counter-screen	–	remaining activity	91%
N#CC(=Cc1cccc([N+](=O)[O-])c1)C(=O)NCc1ccccc1	UCHL1	covalent, intact protein LC-MS	–	12.5 µM	–	labelling	32.8%
C=CC(=O)N1CCC(COCC(=O)N2CCN(c3nc(-c4cnc(N)nc4C(F)F)nc(N4CCOC[C@@H]4C)n3)CC2)CC1	MAP3K4 (Homo sapiens, UniProt Q9Y6R4)	KINOMEscan	–	1 µM	–	remaining binding	100%
Nc1ncnc2c1ncn2[C@@H]1O[C@H](COP(=O)(O)OP(=O)(O)O)[C@@H](O)[C@H]1O	GUK1 (Homo sapiens, UniProt Q16774)	binding, isothermal titration calorimetry	–	molar ratio 2.388, fitted curve	–	ΔH	-0.265 kcal/mol
Cc1ccc(N2C(=O)C3C4c5ccccc5C(C=O)(c5ccccc54)C3C2=O)cc1 (stereo not shown)	UCHL1	covalent, intact protein LC-MS	–	12.5 µM	–	labelling	9.55%
Cn1ncc(S(=O)(=O)NC(c2ccccc2)c2ccc(Cl)cc2Cl)c1C(=O)O (stereo not shown)	malate dehydrogenase	enzyme activity, inhibitor	–	200 µM, pH 7.0, 1% DMSO, aggregation counter-screen	–	remaining activity	94%
COCC(NC(=O)C(C)Cl)c1cccc(C#N)c1 (stereo not shown)	UCHL1	covalent, intact protein LC-MS	–	12.5 µM	–	labelling	19%
CC/C=C(\C)C=O	Uncharacterized protein PH0856 (Pyrococcus horikoshii, UniProt O58586)	substrate	–	pH 9, 30 °C, aerobic, together with: NADH	–	conversion	8%
COCCNC(=O)C(C#N)=Cc1cccc2ccccc12	UCHL1	covalent, intact protein LC-MS	–	12.5 µM	–	labelling	14.4%
Cc1cc(-c2ccnc3[nH]cc(F)c23)cc(F)c1[C@@]1(O)[C@H](C)CN(C2CCS(=O)(=O)CC2)C[C@@H]1C	LATS1 (Homo sapiens, UniProt O95835)	ATP/ADP probe binding, KiNativ	HEK293T lysate	1 µM, Lys1 peptide ALYATKTLR	–	probe labelling inhibition	58.9%
Cc1cc(Oc2ncccc2CN2CCN(c3ccccc3[N+](=O)[O-])CC2)ccc1-c1c(C)c(=O)[nH]c(=O)n1C	ADRA2C	binding, radioligand binding	–	together with: [3H]rauwolscine	reference: Ki alpha2B over Ki alpha2C	selectivity ratio	9
O=C(O)c1occc1S(=O)(=O)NCc1ccc(-c2ccccc2)s1	malate dehydrogenase	enzyme activity, inhibitor	–	200 µM, pH 7.0, 1% DMSO, aggregation counter-screen	–	remaining activity	79%
N[C@@H](Cc1c[nH]c2ccccc12)C(=O)O	Phospho-2-dehydro-3-deoxyheptonate aldolase 2, chloroplastic (DHS2, Arabidopsis thaliana, UniProt Q00218)	differential scanning fluorimetry	–	together with: AAA 1 mM	–	melting temperature	increased
O=c1nc(SCc2cc(F)cc(C(F)(F)F)c2)nc(SCc2ccc3nc(Cl)ccc3c2)[nH]1	TOP2B	decatenation	–	15.6 µM	–	mean decatenated DNA	51.9%
CC1=C(/C=C/C(C)=C/C=C/C(C)=C/C=C/C=C(C)/C=C/C=C(C)/C=C/C2=C(C)CCCC2(C)C)C(C)(C)CCC1	Beta-lactoglobulin (LGB, Bos taurus, UniProt P02754)	intrinsic fluorescence	–	298 K	reference: protein alone	fluorescence decrease	36.4%
O=C(O)c1cccc(C(N(Cc2ccccc2)C(=O)c2cccs2)P(=O)(O)O)n1 (stereo not shown)	Beta-lactamase L1 (Stenotrophomonas maltophilia, UniProt P52700)	binding, inhibitor, nitrocefin progress curves	–	–	–	dissociative half-life	17 ± 2.8 min
Oc1ccccc1-c1n[nH]cc1-c1ccnc2ccccc12	Serine/threonine-protein kinase BUR1 (CRK1, Candida albicans, UniProt Q9Y7W4)	kinase binding, MIB/MS competition	Candida albicans lysate	1 µM	reference: DMSO, negative = stronger binding	log2 fold change	-0.03
CS(=O)(=O)c1nc2ccc(NS(=O)(=O)c3ccc(C#N)cc3)cc2s1	UCHL1	covalent, intact protein LC-MS	–	12.5 µM	–	labelling	9.42%
O=C(O)c1ccc(O)cc1	BEST1	whole-cell patch clamp	HEK293 transiently expressing channel	concentration not given, membrane potential 20 mV	–	current density	5.02 pA/pF and 9.6 pA/pF and 8.09 pA/pF and 6.32 pA/pF and 7.17 pA/pF and 12 pA/pF and 5.87 pA/pF
N[C@@H](CCC(=O)O)C(=O)O	glc-2 (Caenorhabditis elegans, UniProt Q17328)	two-electrode voltage clamp	Xenopus laevis oocytes	–	–	median current	8.9 µA
CN1C(N)=N[C@](C)(c2cc(NC(=O)c3ccc(F)cn3)ccc2F)CS1(=O)=O	Voltage-dependent P/Q-type calcium channel subunit alpha-1A	ion current, antagonist, automated patch clamp	–	–	–	IC30	8820 nM

Some of these lines once more:
SMILES	target	assay	test system	conditions	how to read	endpoint	result
O=c1nc(SCc2cc(F)cc(C(F)(F)F)c2)nc(SCc2ccc3sccc3c2)[nH]1	TOP2B	decatenation	–	7.8 µM, replicate 1	–	decatenated DNA	100%
NS(=O)(=O)c1cccc2cc(NC(=O)CCl)ccc12	UCHL1	covalent, intact protein LC-MS	–	12.5 µM	–	labelling	11.5%
COc1ccc(S(=O)(=O)n2nc(SCc3ccc(Cl)cc3)nc2N)cc1	Lysophospholipase-like protein 1 (Mus musculus, UniProt Q3UFF7)	enzyme activity, activator, gel-based ABPP	purified protein	concentration not given, together with: FP-rhodamine	reference: DMSO	probe labeling increase	2.4 fold
